Measurements collected from several papers.
Each line is one published result; not all experiments were run side by side. “And” joins repeats or separate records; there may be more than shown. Numbers after ± are the reported error.
Histone acetyltransferase RTT109 with Vps75: Histone acetyltransferase RTT109, with Vps75 (Saccharomyces cerevisiae, UniProt Q07794)
BRD4 BD2: Bromodomain-containing protein 4, BD2 (BRD4, Homo sapiens, UniProt O60885)
SIRT2: NAD-dependent protein deacetylase sirtuin-2 (SIRT2, Homo sapiens, UniProt Q8IXJ6)
CRBN with DDB1: Protein cereblon, with DDB1 (CRBN, Homo sapiens, UniProt Q96SW2)
serine/threonine phosphatase Stp1: serine/threonine phosphatase Stp1 (Staphylococcus aureus, UniProt A0A0H2XF73)
BRD4 BD1: Bromodomain-containing protein 4, BD1 (BRD4, Homo sapiens, UniProt O60885)
UCHL1: Ubiquitin carboxyl-terminal hydrolase isozyme L1 (UCHL1, Homo sapiens, UniProt P09936)
CYP2C8: Cytochrome P450 2C8 (CYP2C8, Homo sapiens, UniProt P10632)

SMILES	target	test	test system	setting	IC50
CC[C@H](C)[C@H](N)C(=O)O	ilvA (Escherichia coli, UniProt P04968)	enzyme activity, inhibitor	–	–	9.6 µM
O=C(O)c1ccc2nc(-c3ccc(OCCC(O)COc4ccc(-c5nc6ccc(C(=O)O)cc6[nH]5)cc4Br)c(Br)c3)[nH]c2c1 (stereo not drawn)	Beta-lactamase (Escherichia coli, UniProt Q8VNN1)	enzyme activity, inhibitor	–	–	73 ± 13 µM
C=CC(C)(C)c1cc(/C=C/C(=O)c2ccc(O)cc2)c(OC)cc1O	Histone-arginine methyltransferase CARM1 (Mus musculus, UniProt Q9WVG6)	methyltransferase activity, inhibitor	–	added: histone H3 substrate, [3H]AdoMet	69 µM and ~60 µM
Sc1n[nH]c(-c2ccccc2)n1	Histone acetyltransferase RTT109 with Vps75	enzyme activity, inhibitor, HTS, CPM-based, dose response	–	–	> 125 µM
CN(C)C(=O)c1cc2cnc(Nc3ccc(-c4cccc5c(=O)cc(N6CCOCC6)oc45)cc3)nc2n1C1CCCC1	BRD4 BD2	inhibitor	–	–	0.693 µM
CCCCCCCCCCCCNC(=S)NCCCC[C@H](NS(C)(=O)=O)C(=O)N[C@H](C)C(=O)N[C@@H](CCCNC(=N)N)C(=O)N1CCOCC1	SIRT2	enzyme activity, inhibitor	–	–	13 ± 2 µM
O=S1(=O)C=C(N2CCN(C3CCCCC3)CC2)c2ccccc21	Histone acetyltransferase RTT109 with Vps75	enzyme activity, inhibitor, HTS, CPM-based, dose response	–	–	> 125 µM
Cc1cnc(-c2ccc(-c3ccc(NC(=O)Nc4c(F)cc(F)cc4F)cc3F)c3c2C(=O)NC3)[nH]1	BTK (Homo sapiens, UniProt Q06187, C481S)	enzyme activity, inhibitor, mobility shift	–	added: ATP 1 mM	0.0131 µM
CCOC(=O)[C@H]1O[C@@H]1C(=O)N[C@@H](CC(C)C)C(=O)NCCC(C)C	CAPN1 (Homo sapiens, UniProt P07384)	–	–	–	0.35 ± 0.065 µM
O=C1CCC(N2Cc3c(CNC(=O)c4ccc(F)cc4)cccc3C2=O)C(=O)N1 (stereo not drawn)	CRBN with DDB1	binding, competitor, fluorescence polarization	–	added: Cy5-labelled lenalidomide probe	1.3 µM
O=C(O[C@@H]1O[C@@H]2COC(=O)c3cc(O)c(O)c(O)c3-c3c(cc(O)c(O)c3O)C(=O)O[C@H]([C@H]1O)[C@@H]2O)c1cc(O)c(O)c(O)c1	serine/threonine phosphatase Stp1	enzyme activity, inhibitor	–	–	6.38 µM
CN(C)C(=O)c1cc2cnc(Nc3cc(C(=O)O)cc(-c4cccc5c(=O)cc(N6CCOCC6)oc45)c3)nc2n1C1CCCC1	BRD4 BD1	inhibitor	–	–	> 10 µM
N#CC(=Cc1ccc(O)c([N+](=O)[O-])c1)C(=O)NCc1ccccc1	UCHL1	inhibitor, ubiquitin-rhodamine cleavage	–	2 h preincubation	> 200 µM
Cc1ccc(NC(=O)c2ccc(C)c(C(F)(F)F)c2)cc1C#Cc1nn(C2CCC(O)CC2)c2ncnc(N)c12 (stereo not drawn)	PDGFRA (Homo sapiens, UniProt P16234)	inhibitor, radiometric kinase	–	added: ATP 10 µM	1.29 µM
O=S1(=O)C=C(N2CCCC2)c2ccccc21	Histone acetyltransferase RTT109 with Vps75	enzyme activity, inhibitor, HTS, CPM-based, dose response	–	–	> 125 µM
Cn1c(-c2ccccc2)c(C(=O)CCl)c2ccccc21	UCHL1	inhibitor, ubiquitin-rhodamine cleavage	–	2 h preincubation	> 200 µM
COc1cc(O)c(CC=C(C)C)c(O)c1C(=O)/C=C/c1ccc(O)cc1	CYP2C8	enzyme activity, inhibitor	human liver microsomes	pH 7.4, added: amodiaquine	1.1 ± 0.1 µM
Cc1ccc2[nH]nc(-c3nnc(Nc4ccc(F)cc4)s3)c2c1	thymidine phosphorylase	enzyme activity, inhibitor, spectrophotometric	–	pH 7.5, 25 °C	6.8 ± 0.93 µM
O=C(Nc1cnccc1Cl)N1CCN(Cc2ccc3c(c2)OC(F)(F)O3)CC1	Faah (Rattus norvegicus, UniProt P97612)	enzyme activity, inhibitor	rat brain membranes	60 min preincubation	0.0943 µM
Cn1nc2c(=O)n(C3CC3)cnc2c1[C@](O)(c1cnc(C(F)(F)F)c(Cl)c1)C(F)(F)F	Dihydroorotate dehydrogenase (Canis lupus familiaris, UniProt A0A8I3MWX2)	enzyme activity, inhibitor, DCIP reduction	–	–	> 30 µM
Nc1[nH]cnc2nc(S)nc1-2	Histone acetyltransferase RTT109 with Vps75	enzyme activity, inhibitor, HTS, CPM-based, dose response	–	–	> 125 µM
c1nc2nc(Nc3ccc(N4CCOCC4)cc3)nc(NC3CCCCC3)c2[nH]1	Receptor-like protein kinase FERONIA (FER, Arabidopsis thaliana, UniProt Q9SCZ4)	enzyme activity, inhibitor	–	–	> 100 µM
COc1ccc(-c2oc3c(CC=C(C)C)c(O[C@@H]4O[C@H](CO)[C@@H](O)[C@H](O)[C@H]4O)cc(O)c3c(=O)c2O[C@@H]2O[C@@H](C)[C@H](O)[C@@H](O)[C@H]2O)cc1	serine/threonine phosphatase Stp1	phosphatase activity, inhibitor	–	–	> 148 µM
Cc1ccc(NS(=O)(=O)C2CS(=O)(=O)c3ccccc32)nc1 (stereo not drawn)	Histone acetyltransferase RTT109 with Vps75	enzyme activity, inhibitor, HTS, CPM-based, dose response	–	–	> 125 µM

SMILES	target	test	test system	setting	IC50
CN(C)C(=O)c1cc2cnc(Nc3cccc(-c4cccc5c(=O)cc(N6CCOCC6)oc45)c3)nc2n1C1CCCC1	BRD4 BD1	inhibitor	–	–	> 10 µM
Cc1nc(-c2cnc(NC(C)C)n(C)c2=O)ccc1Oc1ccnc(-c2cnn(C)c2)c1	CYP2C8	metabolism-dependent inhibition, inhibitor	–	30 min preincubation with NADPH	> 100 µM
CN(C)C(=O)c1cc2cnc(Nc3ccc(-c4cccc5c(=O)cc(N6CCOCC6)oc45)c(F)c3)nc2n1C1CCCC1	BRD4 BD2	inhibitor	–	–	0.0693 µM
CC(C)c1ccc(S(=O)(=O)Nc2ccc(-c3nc4ccccc4s3)c(Cl)c2)cc1	Histone acetyltransferase RTT109 with Vps75	enzyme activity, inhibitor, HTS, CPM-based, dose response	–	–	> 125 µM
COc1ccc(-c2ccc3ncc4c(c3c2)n([C@@H]2CCN(C)CC2(F)F)c(=O)n4C)cn1	CLK1 (Homo sapiens, UniProt P49759)	enzyme activity, inhibitor	–	–	0.44 ± 0.0075 µM
CCc1ccc(Cn2nnc3c4ccc(F)cc4c(=O)[nH]c32)cc1	PARP12 (Homo sapiens, UniProt Q9H0J9)	–	–	–	> 10 µM
CC#CC(=O)N1CC[C@@H](n2c(=O)n(-c3ccc(Oc4ccccc4)cc3)c3c(N)ncnc32)C1	LYN (Homo sapiens, UniProt P07948)	–	–	–	4.59 µM
COc1ccc(C2(F)CC2N)cc1OC (stereo not drawn)	tyramine oxidase (Arthrobacter sp.)	enzyme activity, inhibitor, spectrophotometric benzylamine oxidation	–	10 min preincubation, pH 7.2, 25 °C, added: benzylamine 0.6 mM substrate	2.2 µM
CN(c1ccccc1)c1nc(-c2ccccc2)no1	Histone acetyltransferase RTT109 with Vps75	enzyme activity, inhibitor, HTS, CPM-based, dose response	–	–	> 125 µM
Cc1cc(C)nc(SCC(=O)Nc2ncc(Cc3cccc(OCc4cn(Cc5ccccc5C)nn4)c3)s2)n1	SIRT2	–	–	–	0.158 µM
CCCCCCCCCCCCNC(=S)NCCCC[C@H](NC(=O)C1CCCCC1)C(=O)N[C@H](C)C(=O)N[C@@H](CCCNC(=N)N)C(N)=O	SIRT2	enzyme activity, inhibitor	–	–	4.9 ± 1 µM
CN(C)C(=O)c1cc2cnc(Nc3ccc(-c4cccc5c(=O)cc(N6CCOCC6)oc45)cn3)nc2n1C1CCCC1	BRD4 BD1	inhibitor	–	–	1.3 µM
O=C1CCC(N2C(=O)c3cccc(NCCCCCCNC(=O)c4ccc(Oc5ccc(Cl)cc5NS(=O)(=O)c5ccc(Cl)c(C(F)(F)F)c5)cc4)c3C2=O)C(=O)N1 (stereo not drawn)	CRBN with DDB1	binding, HTRF	–	–	0.0139 µM
CN(C)C(=O)c1cc2cnc(Nc3cccc4c(=O)cc(N5CCOCC5)oc34)nc2n1C1CCCC1	BRD4 BD2	inhibitor	–	–	> 10 µM
O=C(CCn1cnc2ccccc2c1=O)Nc1ccc(S(=O)(=O)N2CCCCCC2)cc1	Catenin beta-1, with BCL9 HD2 (CTNNB1, Homo sapiens, UniProt P35222)	BCL9 binding, inhibitor, AlphaScreen	–	–	5.41 µM
CN1CCN(c2ccc(Nc3ncc4cc(C#N)c(=O)n(C5CCCC5)c4n3)cc2)CC1	TNK2 (Homo sapiens, UniProt Q07912)	–	–	–	0.11 µM
CC1(C)CC[C@]2(C(=O)O)CC[C@]3(C)C(=CC[C@@H]4[C@@]5(C)CC[C@H](O)C(C)(C)[C@@H]5CC[C@]43C)[C@@H]2C1	serine/threonine phosphatase Stp1	enzyme activity, inhibitor	–	added: pNPP	> 219 µM
N#CC(=Cc1ccccc1OC(F)F)C(=O)Nc1ccccc1F	UCHL1	inhibitor, ubiquitin-rhodamine cleavage	–	2 h preincubation	> 200 µM
Cc1cc([C@@H](C)Nc2ccccc2C(=O)O)c2nc(N3CCC(F)(F)CC3)c(C#N)c(=O)n2c1	Phosphatidylinositol 4,5-bisphosphate 3-kinase catalytic subunit alpha isoform, with p65 alpha (PIK3CA, Homo sapiens, UniProt P42336)	enzyme activity, inhibitor, ADP-Glo	–	added: 10 µM ATP	1.23 µM
CNc1nc(C)nc(N[C@H]2CCC[C@@H](C(=O)NCc3ccc(C#N)cc3C(F)(F)F)C2)n1	soluble epoxide hydrolase (Equus caballus, UniProt F7C407)	–	–	–	0.003 µM
Cc1cc(OC(C)C)ccc1C(=O)C(C)(C)NC(=O)c1sccc1C	succinate-cytochrome c oxidoreductase (Phaeosphaeria nodorum, UniProt A0A7U2EY10+A0A7U2FCV0+A0A7U2I8M4)	activity, succinate-cytochrome c oxidoreductase, inhibitor	Septoria nodorum, mitochondrial fraction	25 °C	0.0198 µM
CC[C@@H]1[C@H](F)C(=O)N[C@@H]1COc1nccc2cc(C(N)=O)c(OC)cc12	LRRK2 (Homo sapiens, UniProt Q5S007)	ATP-site probe binding, ActivX profiling	THP-1 cell lysate	Lys2 site	0.91 µM
CC1=CC(=O)C(C(C)C)=CC1=O	LRRK2 (Homo sapiens, UniProt Q5S007, G2019S)	kinase activity, radiometric	–	added: MBP substrate	0.125 µM
Sc1ncnc2ccccc12	Histone acetyltransferase RTT109 with Vps75	enzyme activity, inhibitor, HTS, CPM-based, dose response	–	–	> 125 µM

Excerpt of the above:
SMILES	target	test	test system	setting	IC50
CC[C@H](C)[C@H](N)C(=O)O	ilvA (Escherichia coli, UniProt P04968)	enzyme activity, inhibitor	–	–	9.6 µM
O=C(O)c1ccc2nc(-c3ccc(OCCC(O)COc4ccc(-c5nc6ccc(C(=O)O)cc6[nH]5)cc4Br)c(Br)c3)[nH]c2c1 (stereo not drawn)	Beta-lactamase (Escherichia coli, UniProt Q8VNN1)	enzyme activity, inhibitor	–	–	73 ± 13 µM
C=CC(C)(C)c1cc(/C=C/C(=O)c2ccc(O)cc2)c(OC)cc1O	Histone-arginine methyltransferase CARM1 (Mus musculus, UniProt Q9WVG6)	methyltransferase activity, inhibitor	–	added: histone H3 substrate, [3H]AdoMet	69 µM and ~60 µM
Sc1n[nH]c(-c2ccccc2)n1	Histone acetyltransferase RTT109 with Vps75	enzyme activity, inhibitor, HTS, CPM-based, dose response	–	–	> 125 µM
CN(C)C(=O)c1cc2cnc(Nc3ccc(-c4cccc5c(=O)cc(N6CCOCC6)oc45)cc3)nc2n1C1CCCC1	BRD4 BD2	inhibitor	–	–	0.693 µM
CCCCCCCCCCCCNC(=S)NCCCC[C@H](NS(C)(=O)=O)C(=O)N[C@H](C)C(=O)N[C@@H](CCCNC(=N)N)C(=O)N1CCOCC1	SIRT2	enzyme activity, inhibitor	–	–	13 ± 2 µM
O=S1(=O)C=C(N2CCN(C3CCCCC3)CC2)c2ccccc21	Histone acetyltransferase RTT109 with Vps75	enzyme activity, inhibitor, HTS, CPM-based, dose response	–	–	> 125 µM
